{"data": "Assay results of several laboratories", "note": "Compare with care: the assays were run in different laboratories. Several values in a cell are separate wells, animals, samples, runs or records. ± marks the error that the study gave."}
{"Compound": "O=C([O-])CN1CCN(CC(=O)[O-])CCN(CC(=O)[O-])CC1.[44Sc+3]", "system": "mouse, muscle", "conditions": "intravenous, 1 h", "quantity": "tracer uptake", "result": "0.07 %ID/g"}
{"Compound": "O=C(CCCCCCCCCCCCCCCCC(=O)Oc1c2n(cc(C(=O)NCc3c(F)cc(F)cc3F)c1=O)CC1OC3CCC(C3)N1C2=O)Oc1c2n(cc(C(=O)NCc3c(F)cc(F)cc3F)c1=O)CC1OC3CCC(C3)N1C2=O (centres unmarked)", "system": "mouse plasma", "conditions": "1 µM, 24 h", "quantity": "prodrug hydrolysed", "result": "45%"}
{"Compound": "O=C([O-])CN1CCN(CC(=O)[O-])CCN(CC(=O)NCC2CCC(C(=O)NC(Cc3ccc4ccccc4c3)C(=O)NCCCCC(NC(=O)NC(CCC(=O)O)C(=O)O)C(=O)O)CC2)CCN(CC(=O)[O-])CC1.[68Ga+3] (centres unmarked)", "system": "BALB/c mouse, blood", "conditions": "intravenous", "quantity": "elimination half-life", "result": "16 min"}
{"Compound": "N#C[C@@H]1CCCN1C(=O)CNC(=O)c1ccnc2ccc(OCCCN3CCN(C(=O)CCc4ccc5c(c4)CN4CCN(Cc6cc(CCC(=O)O)ccc6O)CC(=O)[O][Al-]([18F])([O]C(=O)C4)[O]5)CC3)cc12 (some centres unmarked)", "test": "radio-TLC", "system": "CD-1 mice, plasma", "conditions": "intravenous, 60 min post-injection", "quantity": "radiochemical purity", "result": "88.5 ± 3.1%"}
{"Compound": "CCCCN1C(=O)c2cccc3c(NCCCCCCCCCCN4CCOCC4)ccc(c23)C1=O", "system": "water", "conditions": "pH 6.0", "quantity": "fluorescence quantum yield", "result": 0.08}
{"Compound": "CC(C)(C)C(=O)Nc1ccccc1", "system": "water", "conditions": "24 h", "quantity": "logP", "result": 2.11}
{"Compound": "O=C(Nc1cnccc1-c1ccc([18F])nc1)c1ccnc(NC(=O)C2CC2)c1", "test": "ex vivo gamma counting", "system": "FVB/NJ mice, both sexes, stomach", "conditions": "intravenous, 120 min, mean, P-gp inhibitor pretreatment, added: tariquidar 15 mg/kg iv", "quantity": "SUV", "result": 0.374}
{"Compound": "CN(Cc1ccccc1)C(=O)CN1CCN(CC(=O)[O-])CCN(CC(=O)N(C)Cc2ccccc2)CC1.[44Sc+3]", "system": "mouse, muscle", "conditions": "intravenous, 1 h", "quantity": "tracer uptake", "result": "0.17 %ID/g"}
{"Compound": "CCC(C(=O)Nc1ccc(C(N)=O)c(F)c1)n1cc(OC)c(-c2cc(Cl)ccc2-n2cc(C(F)(F)F)nn2)cc1=O (centres unmarked)", "system": "healthy male humans", "conditions": "25 mg, ASD vs IR, fed", "quantity": "procedure-related adverse events", "result": "0%"}
{"Compound": "CCCCN1C(=O)c2cccc3c(NCCN4CCOCC4)ccc(c23)C1=O", "system": "acetonitrile", "quantity": "fluorescence lifetime", "result": "10.3 ns"}
{"Compound": "COc1cccc(OC)c1-c1cc(C(=O)NC2(C(=O)O)C3CC4CC(C3)CC2C4)nn1-c1ccc(C(=O)N(C)CCOCCOCCN(C)C(=O)[C@H](CCCCNC(=O)[C@H](CC(C)C)NC(=O)C2OC2C(=O)O)NC(=O)CN2CCN(CC(=O)[O-])CCN(CC(=O)[O-])CCN(CC(=O)[O-])CC2)cc1C(C)C.[177Lu+3] (mixture of isomers)", "system": "mouse, HT-29 xenograft", "conditions": "4 h post injection, biodistribution", "how to read": "baseline: tumour over muscle uptake", "quantity": "tumour-to-muscle ratio", "result": 11.1}
{"Compound": "O=C(Nc1cnccc1-c1ccc([18F])cc1)c1ccnc(NC(=O)C2CC2)c1", "test": "PET imaging", "system": "FVB/NJ mice, both sexes, brain", "conditions": "intravenous, 15 min post-injection, P-gp inhibited, added: tariquidar 15 mg/kg iv, 2 h before", "quantity": "SUV", "result": 0.46}
{"Compound": "COc1cccc(OC)c1-c1cc(C(=O)NC2(C(=O)O)C3CC4CC(C3)CC2C4)nn1-c1ccc(C(=O)N(C)CCCN(C)C(=O)[C@H](CCCCNC(=O)[C@H](CC(C)C)NC(=O)C2OC2C(=O)O)NC(=O)CN2CCN(CC(=O)[O-])CCN(CC(=O)[O-])CCN(CC(=O)[O-])CC2)cc1C(C)C.[177Lu+3] (mixture of isomers)", "system": "mouse HT-29 xenograft, large intestine", "conditions": "24 h post injection, biodistribution", "quantity": "tissue uptake", "result": "0.25 %ID/g"}
{"Compound": "CC(C)(O)c1ccc(N2Cc3c(ccnc3-c3ccc(F)cc3OCC(F)(F)F)C2=O)cc1", "system": "male C57BL/6 mouse, brain", "conditions": "oral, 30 mg/kg, 6 h", "quantity": "concentration", "result": "2710 ng/g"}
{"Compound": "CN([O-])C(=O)CN1CCN(CC(=O)N(C)[O-])CCN(Cc2ccccn2)CC1.[89Zr+4]", "test": "radio-TLC", "system": "human serum", "conditions": "2 days, run 1", "quantity": "intact complex", "result": "94.1%"}
{"Compound": "COc1cccc(OC)c1-c1cc(C(=O)NC2(C(=O)O)C3CC4CC(C3)CC2C4)nn1-c1ccc(C(=O)N(C)CCCN(C)CCCN(C)C(=O)[C@H](CCCCNC(=O)[C@H](CC(C)C)NC(=O)C2OC2C(=O)O)NC(=O)CN2CCN(CC(=O)[O-])CCN(CC(=O)[O-])CCN(CC(=O)[O-])CC2)cc1C(C)C.[177Lu+3] (mixture of isomers)", "system": "mouse, HT-29 xenograft", "conditions": "24 h post injection, biodistribution", "how to read": "baseline: tumour over muscle uptake", "quantity": "tumour-to-muscle ratio", "result": 23.5}
{"Compound": "C=CC(=O)Nc1cc(Nc2nccc(-c3c[nH]c4ccccc34)n2)c(OC)cc1N(C)CCN(C)C", "test": "storage stability", "system": "human plasma", "conditions": "10 d, -80 °C, MQC level", "quantity": "recovery", "result": "93.6%"}
{"Compound": "CCCC[C@H](NC(=O)CNC(=O)CNC(=O)[C@H](CCCCNC(=O)[C@H](CC(=O)O)NC(=O)C(C)c1ccc(CC(C)C)cc1)NC(=O)CN1CCN(CC(=O)O)CCN(CC(=O)O)CCN(CC(=O)O)CC1)C(=O)N[C@H]1CC(=O)NCCCC[C@@H](C(N)=O)NC(=O)[C@H](Cc2c[nH]c3ccccc23)NC(=O)[C@H](CCCNC(=N)N)NC(=O)[C@@H](Cc2ccccc2)NC(=O)[C@H](Cc2c[nH]cn2)NC1=O (some centres unmarked) [lutetium-177 labelled]", "system": "C57 mice, tumour", "conditions": "2 h", "how to read": "baseline: muscle", "quantity": "tumour-to-tissue ratio", "result": 83.2}
{"Compound": "CN(Cc1ccccc1)C(=O)CN1CCN(CC(=O)[O-])CCN(Cc2cccc(C(=O)[O-])n2)CC1.[18F-].[Sc+3]", "system": "mouse, bone", "conditions": "intravenous, 1 h", "quantity": "tracer uptake", "result": "0.27 %ID/g"}
{"Compound": "C=C(NC(=O)c1csc(-c2nc3c(cc2O)-c2nc(cs2)C(=O)NC(C(C)O)C(=O)NC(=C(C)OC)c2nc(cs2)C(=O)NC2c4nc(cs4)C(=O)NC(COC(=O)c4c5c6c(cccc6n4O)COC(=O)C(OC4CC(C)(O)C(N(C)C)C(C)O4)C2OC5)c2nc-3cs2)n1)C(N)=O (centres unmarked)", "system": "Sprague-Dawley rats, male, plasma", "conditions": "intravenous infusion, 6 mg/kg, day 7, multiple dosing", "quantity": "AUC(0-t)", "result": "1560 ng·h/mL"}
{"Compound": "Cc1cc(-c2ccc(C(=O)[C@@H]3CCCC[C@H]3C(=O)Nc3cnn4c3C(=O)NCC4)cc2)[nH]n1", "system": "human, urine", "conditions": "oral, 200 mg, 120-144 h", "how to read": "baseline: dose", "quantity": "radioactivity recovery per interval", "result": "< 0.01% and 0.01% and 0.05%"}
{"Compound": "CC[C@H](C)[C@@H]1NC(=O)[C@H](Cc2ccc(O)cc2)NC(=O)CCCSC[C@@H](C(=O)N(CC(=O)N[C@@H](CC(C)C)C(=O)NCC(N)=O)Cc2ccc(F)cc2)NC(=O)[C@H](CC(N)=O)NC(=O)[C@H](CCC(N)=O)NC1=O", "system": "human", "conditions": "intranasal, 300 µg single dose", "quantity": "severe adverse events", "result": "0%"}
{"Compound": "CCCC[C@H](OC(C)=O)c1ccccc1C(=O)O", "system": "beagle dog, both sexes, whole blood", "conditions": "intravenous, 0.5 mg/kg, single dose", "quantity": "MRT(0-last)", "result": "72 ± 60 min"}
{"Compound": "CN(Cc1ccccc1)C(=O)CN1CCN(CC(=O)[O-])CCN(CC(=O)[O-])CC1.[18F-].[Sc+3]", "system": "mouse, liver", "conditions": "intravenous, 1 h", "quantity": "tracer uptake", "result": "2.53 %ID/g"}
{"Compound": "CC[C@H](C)[C@H](NC(=O)[C@H](C)NC(=O)CNC(=O)[C@H](Cc1ccccc1)NC(=O)[C@H](CC(N)=O)NC(=O)[C@H](CC(N)=O)NC(=O)[C@H](CO)NC(=O)[C@H](CO)NC(=O)[C@H](Cc1c[nH]cn1)NC(=O)[C@@H](NC(=O)[C@H](CC(C)C)NC(=O)[C@H](Cc1ccccc1)NC(=O)[C@H](CC(N)=O)NC(=O)[C@H](C)NC(=O)[C@H](CC(C)C)NC(=O)[C@H](CCCNC(=N)N)NC(=O)[C@H](CCC(N)=O)NC(=O)[C@@H](NC(=O)[C@H](C)NC(=O)[C@@H]1CSSC[C@H](NC(=O)[C@@H](N)CCCCN)C(=O)N[C@@H](CC(N)=O)C(=O)N[C@@H]([C@@H](C)O)C(=O)N[C@@H](C)C(=O)N[C@@H]([C@@H](C)O)C(=O)N1)[C@@H](C)O)C(C)C)C(=O)N[C@@H](CC(C)C)C(=O)N[C@@H](CO)C(=O)N[C@@H](CO)C(=O)N[C@H](C(=O)N[C@@H](CC(N)=O)C(=O)N[C@H](C(=O)NCC(=O)N[C@@H](CO)C(=O)N[C@@H](CC(N)=O)C(=O)N[C@H](C(=O)N[C@@H](Cc1ccc(O)cc1)C(N)=O)[C@@H](C)O)C(C)C)[C@@H](C)O", "test": "RP-HPLC", "system": "water", "conditions": "1.0 mg/mL, 7 days, pH 7.5, 40 °C", "quantity": "main peak area remaining", "result": "< 40%"}
{"Compound": "N=C(N)NCCC[C@@H]1NC(=O)[C@H](CO)NC(=O)[C@@H](NC(=O)[C@H](CO)NC(=O)[C@H](CO)NC(=O)[C@H](Cc2c[nH]c3ccccc23)NC(=O)CNC(=O)[C@H](CO)NC(=O)[C@@H](N)Cc2c[nH]c3ccccc23)CSSC[C@@H](C(=O)NCC(=O)O)NC(=O)[C@H](CO)NC1=O", "system": "patients, plasma", "conditions": "intravenous, 5 mg/kg, thrice weekly, median", "quantity": "Ctrough", "result": "0 ng/mL"}
{"Compound": "O=C1NC(=O)/C(=C/c2ccc3ncnc(N4CCC(F)CC4)c3n2)S1", "quantity": "logP", "result": 1.77}
{"Compound": "CC(=O)N([O-])CCCCCNC(=O)CCC(=O)N([O-])CCCCCNC(=O)CCC(=O)N([O-])CCCCCN.[89Zr+4]", "test": "radio-TLC", "system": "aqueous buffer", "conditions": "3 d, pH 8.5, 37 °C, 89Zr-labelled complex, added: DTPA 1000-fold excess", "quantity": "intact complex", "result": "92.6 ± 0.5%"}
{"Compound": "O=C([O-])CN1CCN(CC(=O)[O-])CCN(Cc2cccc(C(=O)[O-])n2)CC1.[177Lu+3]", "system": "mouse, stomach", "conditions": "intravenous, 1 h", "quantity": "tracer uptake", "result": "0.36 %ID/g"}
{"Compound": "COc1ccc2c(c1)C(C)(C)C(/C=C/C1=C(Oc3ccc(C(=O)NCCCCOc4cc(CN(Cc5ccccn5)Cc5ccccn5)cc(CN(Cc5ccccn5)Cc5ccccn5)c4)cc3)C(=C/C=C3/N(CCCCS(=O)(=O)[O-])c4ccc(OC)cc4C3(C)C)CCC1)=[N+]2CCCCS(=O)(=O)[O-].O=[N+]([O-])[O-].O=[N+]([O-])[O-].[99Tc+].[C-]#[O+].[C-]#[O+].[C-]#[O+].[Zn+2]", "test": "radio-TLC", "system": "formulation buffer", "conditions": "0 h, room temperature", "quantity": "intact compound", "result": "98.7%"}
{"Compound": "CN(Cc1ccccc1)C(=O)CN1CCN(CC(=O)N(C)Cc2ccccc2)CCN(Cc2cccc(C(=O)[O-])n2)CC1.[44Sc+3]", "system": "mouse, liver", "conditions": "intravenous, 1 h", "quantity": "tracer uptake", "result": "6.24 %ID/g"}
{"Compound": "Cc1nn(-c2nc3c(F)cc(F)cc3s2)c(O)c1C(c1ccc(C(F)(F)F)cc1)c1c(C)nn(-c2nc3c(F)cc(F)cc3s2)c1O", "system": "ICR mouse, plasma", "conditions": "intravenous, 5 mg/kg", "quantity": "AUC(0-inf) observed", "result": "122000 ng·h/mL and 39500 ng·h/mL and 48300 ng·h/mL"}
{"note": "A few entries again:"}
{"Compound": "CC(C)(C)C(=O)Nc1ccccc1", "system": "water", "conditions": "24 h", "quantity": "logP", "result": 2.11}
{"Compound": "CC[C@H](C)[C@@H]1NC(=O)[C@H](Cc2ccc(O)cc2)NC(=O)CCCSC[C@@H](C(=O)N(CC(=O)N[C@@H](CC(C)C)C(=O)NCC(N)=O)Cc2ccc(F)cc2)NC(=O)[C@H](CC(N)=O)NC(=O)[C@H](CCC(N)=O)NC1=O", "system": "human", "conditions": "intranasal, 300 µg single dose", "quantity": "severe adverse events", "result": "0%"}
{"Compound": "COc1cccc(OC)c1-c1cc(C(=O)NC2(C(=O)O)C3CC4CC(C3)CC2C4)nn1-c1ccc(C(=O)N(C)CCOCCOCCN(C)C(=O)[C@H](CCCCNC(=O)[C@H](CC(C)C)NC(=O)C2OC2C(=O)O)NC(=O)CN2CCN(CC(=O)[O-])CCN(CC(=O)[O-])CCN(CC(=O)[O-])CC2)cc1C(C)C.[177Lu+3] (mixture of isomers)", "system": "mouse, HT-29 xenograft", "conditions": "4 h post injection, biodistribution", "how to read": "baseline: tumour over muscle uptake", "quantity": "tumour-to-muscle ratio", "result": 11.1}
